Measured values pooled from the literature.
Numbered parts are unrelated; each lists some results of a single study. Substitutions count along the parent as printed.

Series 1
Target: Interferon regulatory factor 3, full length, phosphomimetic (IRF3, Homo sapiens, UniProt Q14653, residues 1-427, S386D/S396D/S398D/S402D/T404D/S405D)
Method: protein-binding microarray
Form: double-stranded DNA, one strand shown
Matrix: in vitro
Concentration: 2540 nM top
Setting: 60-bp whole probe
Together with: salmon DNA 0.4 mg/ml
Reference: random background probes
Direction: higher = stronger binding
Measurement: fitted relative affinity
All sequences stand within: GCCTAGCAC … GTGCTAGGTCTTGATTCGCTTGACGCTGCTG
Target sequence (chain): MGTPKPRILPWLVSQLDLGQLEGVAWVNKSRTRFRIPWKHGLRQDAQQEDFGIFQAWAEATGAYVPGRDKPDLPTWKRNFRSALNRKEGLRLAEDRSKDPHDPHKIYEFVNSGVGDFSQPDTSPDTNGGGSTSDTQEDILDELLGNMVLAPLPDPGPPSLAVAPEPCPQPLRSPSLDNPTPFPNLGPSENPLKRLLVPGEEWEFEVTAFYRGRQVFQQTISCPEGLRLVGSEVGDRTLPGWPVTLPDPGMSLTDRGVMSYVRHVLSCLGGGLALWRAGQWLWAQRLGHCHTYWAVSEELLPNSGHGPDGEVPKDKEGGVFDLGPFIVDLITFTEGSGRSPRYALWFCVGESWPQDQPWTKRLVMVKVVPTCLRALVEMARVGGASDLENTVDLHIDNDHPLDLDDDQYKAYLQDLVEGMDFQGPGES
TTACATATCAGTATCGATTA: 2.01 z-score
CGCAGGGCAGGCTTCGGCCG: -1.58 z-score
GACGGTTCCCTTTTCCTGGC: 6.56 z-score
TTAGATCTCAGTTTCCATTA: 4.23 z-score
TCTAATATTCATTTTATTCA: 1.12 z-score
TCTGGGCCTCCATCATCTGT: -1.29 z-score
TTAGATCTCAGTCTTGATTA: 0.258 z-score
GACGTACTGGGTCTCGGGAC: -0.588 z-score

Series 2
Target: vanadate, free oxyanion
Method: microfluidic competitive inhibition
Matrix: in vitro, cell-free expressed
Concentration: not given
Setting: derived from inhibition constants, unchanged parent 676 nM
Direction: lower = stronger binding
Measurement: oxyanion analog dissociation constant
Parent: PafA, mature enzyme, eGFP fusion (Elizabethkingia meningoseptica, UniProt Q9KJX5); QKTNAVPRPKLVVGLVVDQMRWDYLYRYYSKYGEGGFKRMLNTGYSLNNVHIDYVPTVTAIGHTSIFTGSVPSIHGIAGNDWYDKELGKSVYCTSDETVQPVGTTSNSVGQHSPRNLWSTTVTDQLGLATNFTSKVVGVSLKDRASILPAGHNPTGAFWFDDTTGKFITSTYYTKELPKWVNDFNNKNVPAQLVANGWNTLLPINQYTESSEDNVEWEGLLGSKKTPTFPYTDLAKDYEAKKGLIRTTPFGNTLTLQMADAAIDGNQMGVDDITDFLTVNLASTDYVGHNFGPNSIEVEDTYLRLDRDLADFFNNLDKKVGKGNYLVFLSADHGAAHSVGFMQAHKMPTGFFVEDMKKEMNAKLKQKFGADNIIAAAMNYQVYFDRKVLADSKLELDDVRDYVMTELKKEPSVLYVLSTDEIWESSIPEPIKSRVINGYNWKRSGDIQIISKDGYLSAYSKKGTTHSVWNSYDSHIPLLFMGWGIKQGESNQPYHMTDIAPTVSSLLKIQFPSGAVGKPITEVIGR
T164V: 818 nM
Q343G: 739 nM
S295V: 713 nM

Series 3
Target: CCNA2, cyclin fold, Cln2 fusion (human)
Method: yeast growth competition, sequencing
Matrix: yeast
Setting: strong parent motif
Reference: not given
Direction: higher = stronger binding
Measurement: normalised enrichment score
Parent: viral docking peptide; TSVRRALFTGGSD
R4Y: 3.45
S2A: 5.73
A6F: 1.55
G10H: 5.98
S12V: 6.22
S2C: 6.3
A6H: 2.73
A6M: 4.49
R5K: 5.95
L7P: 0.0874
A6Y: 0.931
F8S: 0.362
A6S: 5.81

Series 4
Target: Ras GTPase-activating protein-binding protein 1, C-terminal RGG region (G3BP1, Homo sapiens, UniProt Q13283)
Chain of UniProt Q13283 (whole entry, looked up): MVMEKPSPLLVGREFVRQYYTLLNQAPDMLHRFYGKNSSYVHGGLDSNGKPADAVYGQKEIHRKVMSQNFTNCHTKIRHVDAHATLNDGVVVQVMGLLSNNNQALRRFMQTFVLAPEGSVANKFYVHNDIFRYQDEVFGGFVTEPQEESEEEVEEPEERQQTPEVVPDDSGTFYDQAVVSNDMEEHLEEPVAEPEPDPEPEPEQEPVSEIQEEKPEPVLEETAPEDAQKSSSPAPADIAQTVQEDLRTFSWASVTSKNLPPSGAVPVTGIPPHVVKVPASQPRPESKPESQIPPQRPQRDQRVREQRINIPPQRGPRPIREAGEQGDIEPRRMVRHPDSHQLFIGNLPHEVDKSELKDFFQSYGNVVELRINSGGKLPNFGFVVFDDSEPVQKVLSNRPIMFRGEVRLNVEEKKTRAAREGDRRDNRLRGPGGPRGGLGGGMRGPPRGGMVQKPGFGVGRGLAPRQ
Method: RNA Bind-n-Seq
Form: RNA
Matrix: in vitro
Concentration: 1 µM
Setting: whole 134-nt RNA, ends assumed
Together with: 150 mM KCl
Reference: input library
Direction: higher = stronger binding
Measurement: log2 enrichment
All sequences stand within: GGGAGUUCUACAGUCCGACGAUC … UGGAAUUCUCGGGUGUCAAGG
AAGUCCUGUGCUACACAUCGUAUGUACCGAAUCGGGUUUUUUUGGGUGGGUUUGGGAAAGUAUUAUGUUACGCCGUUCGGAUCUGCACUU: 0.932
AAAGGAAGUAAAAACAAAUGGAAAUGCUUCGGAUAGUGGCAGGGGUGGGGGUUGCUAAGGAAAGGGUGGGAUGGGAGUGGGUAAAGAGUU: 1.66
UAACUUUAGAGGAGGAUCUGAUGGAUAUGGCAGUGGACGUGGAUUUGGGGCUGGCUAUAAUGGGUAUGGAGGAGGACCUGGAGGUGGCAA: -0.599
CCUGUGCUACACAUCGUAUGUACCGAAUCGGGGUUUUUUUGGGGUUUUUUUGGGGUGGGGAAAGUAUUAUGUUACGCCGUUCGGAUCUGC: -0.0543
CAAGUCCUGUGCUACACAUCGUAUGUACCGAAUCGGGAGGGUGGGUUUUUUUGGGAAAGUAUUAUGUUACGCCGUUCGGAUCUGCACUUC: 1.01
GCAGGAAGUAAAAACAAAUGGAAAUGCUUCGGAUAGUGGCAGGGGUGGGGGUUGCUAAGGAAAGGGUGGGAUGGGAGUGGGUAAAGGGUU: 0.63
UAGCCCUGGUGGCAUGCGGGGAGGAAGAGGUGGCCUCAUGGAUCGUGGUGGUCCCGGUGGAAUGUUCAGAGGUGGCCGUGGUGGAGACAG: 2.26
AGUCCUGUGCUACACAUCGUAUGUACCGAAUCGGGUGGGAAAAAGGGUUUUUUUGGGAAAGUAUUAUGUUACGCCGUUCGGAUCUGCACU: 0.342

Further values, each from its own experiment
PhoQ, residues 284 288 289 292 302 303 NSMLDC — fold induction (PhoP, residues 12 14 15 18 19 VQGLL (Escherichia coli, UniProt P23836); Sort-seq, measured: YFP reporter; E. coli; PhoQ-PhoP variant library, together with: 10 µM Mg2+; reference: high Mg2+ state, higher = stronger signaling): 14.2

Excerpt of the above (series 4):
AAGUCCUGUGCUACACAUCGUAUGUACCGAAUCGGGUUUUUUUGGGUGGGUUUGGGAAAGUAUUAUGUUACGCCGUUCGGAUCUGCACUU: 0.932
AAAGGAAGUAAAAACAAAUGGAAAUGCUUCGGAUAGUGGCAGGGGUGGGGGUUGCUAAGGAAAGGGUGGGAUGGGAGUGGGUAAAGAGUU: 1.66
UAACUUUAGAGGAGGAUCUGAUGGAUAUGGCAGUGGACGUGGAUUUGGGGCUGGCUAUAAUGGGUAUGGAGGAGGACCUGGAGGUGGCAA: -0.599
CCUGUGCUACACAUCGUAUGUACCGAAUCGGGGUUUUUUUGGGGUUUUUUUGGGGUGGGGAAAGUAUUAUGUUACGCCGUUCGGAUCUGC: -0.0543
